Experimental data from different studies.
Each line is one published result; not all experiments were run side by side.
Cell line: Vero

Structure (SMILES) = CC(C)C[C@@H](CN1CCOCC1)N(C)c1ccnc2cc(C(F)(F)F)ccc12; test = cell growth or viability, resazurin; setting = 72 h; quantity = CC50; value = 68.6 µM
Structure (SMILES) = NCCCCCCCCCCCC(=O)NS(=O)(=O)OC[C@H]1O[C@@H](n2cnc3c(N)ncnc32)[C@H](O)[C@@H]1O; test = cytotoxicity, MTT; setting = 72 h; quantity = IC50; value = 42 µM
Structure (SMILES) = CN(C)c1cc2[nH]c(C3CCCCC3)nc2cc1NC(=O)c1cccs1; test = cytotoxicity, Alamar Blue; setting = 3 days, 37 °C; quantity = IC50; value = > 100 µg/mL
Structure (SMILES) = CCOC(=O)C1=C(C)N2NC(c3ccccc3O)N(C(Cc3c[nH]c4ccccc34)C(=O)O)C2=NC1c1ccc(Cl)cc1 (stereo not drawn); test = cell viability, MTT; setting = 72 h, 10% fetal bovine serum; quantity = CC50; value = 125 µg/mL
Structure (SMILES) = CCCCCCC/C=C/C(=O)N1C(=O)/C(=C(\O)c2ccc(OCOCCOC)cc2)C(=O)C1CC(C)C (stereo not drawn); test = cytotoxicity, CellTiter-Glo; setting = 72 h, 50% viability reduction; quantity = IC50; value = 19.8 µg/mL
Structure (SMILES) = CC(C)C[C@@H](CN1CCCC1)N(C)c1ccnc2cc(C(F)(F)F)ccc12; test = cell growth or viability, resazurin; setting = 72 h; quantity = CC50; value = 52 µM
Structure (SMILES) = CCCOCC(=O)Nc1cc2nc(C3CCCCC3)[nH]c2cc1N1CCCC1; test = cytotoxicity, Alamar Blue; setting = 3 days, 37 °C; quantity = IC50; value = > 100 µg/mL
Structure (SMILES) = CCCCCCC/C=C/C(=O)N1C(=O)/C(=C(\O)C2CCNCC2)C(=O)C1CC(C)C (stereo not drawn); test = cytotoxicity, CellTiter-Glo; setting = 72 h, 50% viability reduction; quantity = IC50; value = 115 µg/mL
Structure (SMILES) = CCCCCCCCCC[C@H](C)C(=O)NS(=O)(=O)OC[C@H]1O[C@@H](n2cnc3c(N)ncnc32)[C@H](O)[C@@H]1O; test = cytotoxicity, MTT; setting = 72 h; quantity = IC50; value = 14.5 µM
Structure (SMILES) = CCN(CC)C[C@H](CC(C)C)N(C)c1ccnc2cc(Cl)ccc12; test = cell growth or viability, resazurin; setting = 72 h; quantity = CC50; value = 60.3 µM
Structure (SMILES) = CCCCCCC/C=C/C(=O)N1CC(=O)/C(=C(\C)O)C1=O; test = cytotoxicity, CellTiter-Glo; setting = 72 h, 50% viability reduction; quantity = IC50; value = 39.9 µg/mL
Structure (SMILES) = CN(c1ccnc2cc(C(F)(F)F)ccc12)[C@@H](Cc1ccccc1)CN1CCCC1; test = cell growth or viability, resazurin; setting = 72 h; quantity = CC50; value = 39.2 µM
Structure (SMILES) = CCCc1ccc(C(=O)Nc2cc3nc(C4CCCCC4)[nH]c3cc2N(C)C)cc1; test = cytotoxicity, Alamar Blue; setting = 3 days, 37 °C; quantity = IC50; value = > 100 µg/mL
Structure (SMILES) = CCCCCCC/C=C/C(=O)N1C(=O)/C(=C(/C)O)C(=O)C1CCCCN (stereo not drawn); test = cytotoxicity, CellTiter-Glo; setting = 72 h, 50% viability reduction; quantity = IC50; value = 164 µg/mL
Structure (SMILES) = CCCNC(=O)Nc1cc2nc(C3CCCCC3)[nH]c2cc1N(CC)CC; test = cytotoxicity, Alamar Blue; setting = 3 days, 37 °C; quantity = IC50; value = > 100 µg/mL
Structure (SMILES) = C/C(O)=C1\C(=O)C(CC(C)C)N(C(=O)CCCCCc2ccccc2)C1=O (stereo not drawn); test = cytotoxicity, CellTiter-Glo; setting = 72 h, 50% viability reduction; quantity = IC50; value = 11.2 µg/mL
Structure (SMILES) = Nc1nc2c(ncn2COCCO)c(=O)[nH]1; test = cell growth or viability, MTT; setting = 24 h; quantity = CC50; value = 975 µM
Structure (SMILES) = CCCCCCC/C=C/C(=O)N1C(=O)/C(=C(\O)CCCC)C(=O)C1CC(C)C (stereo not drawn); test = cytotoxicity, CellTiter-Glo; setting = 72 h, 50% viability reduction; quantity = IC50; value = 5.77 µg/mL
Structure (SMILES) = CCOc1ccc(C(=O)Nc2cc3nc(C4CCCCC4)[nH]c3cc2N(CC)CC)cc1; test = cytotoxicity, Alamar Blue; setting = 3 days, 37 °C; quantity = IC50; value = > 100 µg/mL
Structure (SMILES) = Nc1ncnc2c1ncn2[C@@H]1O[C@H](COS(=O)(=O)NC(=O)CCCCCCCCCCO)[C@@H](O)[C@H]1O; test = cytotoxicity, MTT; setting = 72 h; quantity = IC50; value = 27 µM
Structure (SMILES) = CCN(CC)C[C@H](CC(C)C)N(C)c1ccnc2cc(C(F)(F)F)ccc12; test = cell growth or viability, resazurin; setting = 72 h; quantity = CC50; value = 51.4 µM
Structure (SMILES) = O=c1cc(C(F)(F)F)[nH]c2cc(C(F)(F)F)cc(Nc3ccc(C(F)(F)F)cn3)c12; setting = 30 µM, 24 h; scale = reference: SDS control; quantity = LDH release; value = ~20%
Structure (SMILES) = CCCCC/C=C\CCCC(=O)NS(=O)(=O)OC[C@H]1O[C@@H](n2cnc3c(N)ncnc32)[C@H](O)[C@@H]1O; test = cytotoxicity, MTT; setting = 72 h; quantity = IC50; value = 14.3 µM
Structure (SMILES) = CN(C)c1cc2[nH]c(C3CCCCC3)nc2cc1NC(=O)c1ccccc1; test = cytotoxicity, Alamar Blue; setting = 3 days, 37 °C; quantity = IC50; value = > 100 µg/mL
Structure (SMILES) = CCCCCCC/C=C/C(=O)N1C(=O)/C(=C(\O)c2ccccc2)C(=O)C1CC(C)C (stereo not drawn); test = cytotoxicity, CellTiter-Glo; setting = 72 h, 50% viability reduction; quantity = IC50; value = 12.5 µg/mL
Structure (SMILES) = Cc1ccc(C(=O)Nc2cc3nc(C4CCCCC4)[nH]c3cc2N(C)C)cc1; test = cytotoxicity, Alamar Blue; setting = 3 days, 37 °C; quantity = IC50; value = > 100 µg/mL
Structure (SMILES) = O=C(C=Cc1cccc(Cl)c1)C=Cc1cccc(Cl)c1; test = cell growth or viability, MTT; setting = 72 h; quantity = CC50; value = 164 µM
Structure (SMILES) = O=c1cc(C(F)(F)F)[nH]c2cc(C(F)(F)F)cc(N[C@H]3CC[C@H](C(F)(F)F)CC3)c12; setting = 30 µM, 24 h; scale = reference: SDS control; quantity = LDH release; value = ~20%
Structure (SMILES) = CN(c1ccnc2cc(Cl)ccc12)[C@@H](Cc1ccccc1)CN1CCCC1; test = cell growth or viability, resazurin; setting = 72 h; quantity = CC50; value = 57.8 µM
Structure (SMILES) = CCCCOC(=O)Nc1cc2nc(C3CCCCC3)[nH]c2cc1N(C)CCN(C)C; test = cytotoxicity, Alamar Blue; setting = 3 days, 37 °C; quantity = IC50; value = > 100 µg/mL

Some of these lines once more:
Structure (SMILES) = CCCNC(=O)Nc1cc2nc(C3CCCCC3)[nH]c2cc1N(CC)CC; test = cytotoxicity, Alamar Blue; setting = 3 days, 37 °C; quantity = IC50; value = > 100 µg/mL
Structure (SMILES) = C/C(O)=C1\C(=O)C(CC(C)C)N(C(=O)CCCCCc2ccccc2)C1=O (stereo not drawn); test = cytotoxicity, CellTiter-Glo; setting = 72 h, 50% viability reduction; quantity = IC50; value = 11.2 µg/mL
Structure (SMILES) = Nc1nc2c(ncn2COCCO)c(=O)[nH]1; test = cell growth or viability, MTT; setting = 24 h; quantity = CC50; value = 975 µM
